Measured values of several laboratories.
Every numbered part comes from another study and shows a few of its results, in no order. pEC50: −log10 of the molar value.
UniProt Q96L34, sequence (whole entry, looked up): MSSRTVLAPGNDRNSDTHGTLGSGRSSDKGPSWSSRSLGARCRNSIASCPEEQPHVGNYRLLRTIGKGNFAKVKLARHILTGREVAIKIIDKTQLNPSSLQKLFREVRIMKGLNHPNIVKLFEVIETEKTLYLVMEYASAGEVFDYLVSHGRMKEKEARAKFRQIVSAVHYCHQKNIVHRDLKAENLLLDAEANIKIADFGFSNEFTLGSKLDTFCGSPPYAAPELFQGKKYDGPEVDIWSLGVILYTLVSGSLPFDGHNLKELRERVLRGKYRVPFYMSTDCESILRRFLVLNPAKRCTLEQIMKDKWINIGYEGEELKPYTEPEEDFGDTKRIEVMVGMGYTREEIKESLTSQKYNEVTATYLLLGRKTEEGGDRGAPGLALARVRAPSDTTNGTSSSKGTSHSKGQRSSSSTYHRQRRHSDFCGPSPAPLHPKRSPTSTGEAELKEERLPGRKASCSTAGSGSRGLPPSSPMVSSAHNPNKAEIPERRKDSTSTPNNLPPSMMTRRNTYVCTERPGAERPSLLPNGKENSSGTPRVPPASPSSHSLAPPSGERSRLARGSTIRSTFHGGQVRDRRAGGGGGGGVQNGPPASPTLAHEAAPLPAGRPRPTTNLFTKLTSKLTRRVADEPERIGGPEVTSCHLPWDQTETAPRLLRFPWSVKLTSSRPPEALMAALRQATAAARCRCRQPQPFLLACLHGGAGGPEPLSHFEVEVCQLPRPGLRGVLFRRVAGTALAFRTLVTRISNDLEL
UniProt Q86UE8, sequence (whole entry, looked up): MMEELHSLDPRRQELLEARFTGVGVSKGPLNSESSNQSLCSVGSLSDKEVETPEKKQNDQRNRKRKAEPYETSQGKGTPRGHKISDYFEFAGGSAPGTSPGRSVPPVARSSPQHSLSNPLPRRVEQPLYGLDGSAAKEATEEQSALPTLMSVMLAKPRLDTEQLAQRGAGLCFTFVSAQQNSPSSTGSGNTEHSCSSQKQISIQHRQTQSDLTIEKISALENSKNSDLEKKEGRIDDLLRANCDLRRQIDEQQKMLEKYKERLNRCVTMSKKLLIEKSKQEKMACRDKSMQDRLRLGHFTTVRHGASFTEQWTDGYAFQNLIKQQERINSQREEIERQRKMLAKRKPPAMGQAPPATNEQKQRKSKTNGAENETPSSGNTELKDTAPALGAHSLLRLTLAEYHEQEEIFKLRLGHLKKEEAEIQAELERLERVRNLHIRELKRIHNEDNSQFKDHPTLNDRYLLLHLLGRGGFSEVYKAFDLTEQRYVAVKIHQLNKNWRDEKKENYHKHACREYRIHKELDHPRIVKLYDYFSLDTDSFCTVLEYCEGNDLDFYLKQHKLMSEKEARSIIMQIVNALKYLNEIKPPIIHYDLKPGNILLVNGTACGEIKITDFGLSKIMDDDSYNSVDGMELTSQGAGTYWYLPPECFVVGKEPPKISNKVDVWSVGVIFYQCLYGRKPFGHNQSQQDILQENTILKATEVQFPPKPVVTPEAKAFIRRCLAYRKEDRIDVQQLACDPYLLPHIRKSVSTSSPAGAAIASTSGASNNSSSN
UniProt P28482, sequence (whole entry, looked up): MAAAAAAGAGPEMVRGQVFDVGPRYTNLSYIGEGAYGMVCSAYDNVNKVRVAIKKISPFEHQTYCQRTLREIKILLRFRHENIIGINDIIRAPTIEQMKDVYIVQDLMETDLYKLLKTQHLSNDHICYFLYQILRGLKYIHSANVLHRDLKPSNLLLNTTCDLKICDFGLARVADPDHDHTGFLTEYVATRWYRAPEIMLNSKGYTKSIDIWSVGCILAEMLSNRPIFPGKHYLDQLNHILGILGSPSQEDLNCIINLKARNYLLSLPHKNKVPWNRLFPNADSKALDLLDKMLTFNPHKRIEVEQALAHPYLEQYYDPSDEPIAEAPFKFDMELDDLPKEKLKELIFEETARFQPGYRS
UniProt Q8N568, sequence (whole entry, looked up): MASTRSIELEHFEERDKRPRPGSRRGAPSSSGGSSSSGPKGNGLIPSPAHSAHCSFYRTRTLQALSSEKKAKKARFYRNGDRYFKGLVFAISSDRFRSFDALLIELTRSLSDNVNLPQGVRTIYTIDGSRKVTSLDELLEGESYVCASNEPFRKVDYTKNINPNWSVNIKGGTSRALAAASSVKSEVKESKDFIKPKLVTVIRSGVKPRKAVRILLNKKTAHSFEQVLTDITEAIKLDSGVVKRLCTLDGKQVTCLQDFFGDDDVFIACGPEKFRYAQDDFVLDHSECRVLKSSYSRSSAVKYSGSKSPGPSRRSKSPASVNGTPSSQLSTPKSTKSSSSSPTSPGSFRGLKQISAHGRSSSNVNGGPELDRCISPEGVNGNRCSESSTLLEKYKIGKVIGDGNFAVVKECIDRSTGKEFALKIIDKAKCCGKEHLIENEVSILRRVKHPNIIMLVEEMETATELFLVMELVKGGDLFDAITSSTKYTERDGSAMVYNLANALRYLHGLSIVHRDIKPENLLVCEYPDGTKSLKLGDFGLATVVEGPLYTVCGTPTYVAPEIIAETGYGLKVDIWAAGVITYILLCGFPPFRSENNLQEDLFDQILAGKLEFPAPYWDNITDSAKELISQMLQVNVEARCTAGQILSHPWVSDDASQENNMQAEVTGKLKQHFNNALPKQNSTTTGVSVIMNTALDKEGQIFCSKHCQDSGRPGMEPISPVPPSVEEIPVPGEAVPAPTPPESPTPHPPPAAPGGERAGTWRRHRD
UniProt Q9NRH2, sequence (whole entry, looked up): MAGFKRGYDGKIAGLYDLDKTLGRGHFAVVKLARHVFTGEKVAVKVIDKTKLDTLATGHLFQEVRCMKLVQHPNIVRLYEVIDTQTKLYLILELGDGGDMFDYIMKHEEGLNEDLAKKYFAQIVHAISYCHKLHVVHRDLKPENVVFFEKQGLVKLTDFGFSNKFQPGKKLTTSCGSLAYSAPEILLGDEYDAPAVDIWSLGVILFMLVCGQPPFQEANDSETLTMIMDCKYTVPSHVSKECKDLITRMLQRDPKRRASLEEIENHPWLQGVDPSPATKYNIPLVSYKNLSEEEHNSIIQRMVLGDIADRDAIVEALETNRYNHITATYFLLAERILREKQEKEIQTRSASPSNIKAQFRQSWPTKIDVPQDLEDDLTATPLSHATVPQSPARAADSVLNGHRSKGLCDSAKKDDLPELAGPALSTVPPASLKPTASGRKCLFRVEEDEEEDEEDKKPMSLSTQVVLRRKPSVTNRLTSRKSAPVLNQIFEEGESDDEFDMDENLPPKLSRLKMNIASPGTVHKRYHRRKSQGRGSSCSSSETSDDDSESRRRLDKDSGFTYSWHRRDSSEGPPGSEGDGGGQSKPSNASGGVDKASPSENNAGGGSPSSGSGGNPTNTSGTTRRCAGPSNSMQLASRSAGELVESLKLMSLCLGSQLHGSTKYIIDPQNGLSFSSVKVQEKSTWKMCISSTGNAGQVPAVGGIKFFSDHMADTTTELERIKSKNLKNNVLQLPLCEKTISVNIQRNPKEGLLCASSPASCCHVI
UniProt P50750, sequence (whole entry, looked up): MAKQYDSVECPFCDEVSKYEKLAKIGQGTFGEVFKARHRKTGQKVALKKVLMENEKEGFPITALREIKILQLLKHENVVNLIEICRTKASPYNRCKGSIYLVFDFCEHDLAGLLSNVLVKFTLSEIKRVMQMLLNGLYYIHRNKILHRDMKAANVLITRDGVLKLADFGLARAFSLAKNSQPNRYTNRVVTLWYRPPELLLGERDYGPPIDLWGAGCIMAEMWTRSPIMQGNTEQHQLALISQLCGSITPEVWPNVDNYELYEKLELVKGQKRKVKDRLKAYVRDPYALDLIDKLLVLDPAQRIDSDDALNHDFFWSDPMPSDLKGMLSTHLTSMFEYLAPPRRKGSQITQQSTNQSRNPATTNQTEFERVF
UniProt Q16566, sequence (whole entry, looked up): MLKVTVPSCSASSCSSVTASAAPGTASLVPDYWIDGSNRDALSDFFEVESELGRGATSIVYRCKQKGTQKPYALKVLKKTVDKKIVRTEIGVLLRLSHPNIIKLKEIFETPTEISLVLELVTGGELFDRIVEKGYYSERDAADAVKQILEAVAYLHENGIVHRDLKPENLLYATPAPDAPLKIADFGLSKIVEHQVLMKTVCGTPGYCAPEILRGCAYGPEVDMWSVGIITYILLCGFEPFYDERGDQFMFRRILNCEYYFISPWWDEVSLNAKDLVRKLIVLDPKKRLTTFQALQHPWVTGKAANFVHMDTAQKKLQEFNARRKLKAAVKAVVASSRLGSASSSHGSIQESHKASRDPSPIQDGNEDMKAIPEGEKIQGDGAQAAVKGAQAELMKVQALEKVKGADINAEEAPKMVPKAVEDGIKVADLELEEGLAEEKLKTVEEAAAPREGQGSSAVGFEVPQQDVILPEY

Set 1 — observed: cell-free assay; technique: competition with immobilised ligand; concentration: 1 µM
Compound: CCc1ccccc1C(=O)Nc1n[nH]c2c(C)c(F)c(C3C(C#N)=C(C)N(C)C(C)=C3C#N)cc12
| target | remaining binding [%] |
| --- | --- |
| SNF-related serine/threonine-protein kinase (SNRK, Homo sapiens, UniProt Q9NRH2) | 100 |
| Dual specificity tyrosine-phosphorylation-regulated kinase 1A (DYRK1A, Homo sapiens, UniProt Q13627) | 100 |
| Dual specificity mitogen-activated protein kinase kinase 7 (MAP2K7, Homo sapiens, UniProt O14733) | 100 |
| cGMP-dependent protein kinase 1 (PRKG1, Homo sapiens, UniProt Q13976) | 100 |
| Epidermal growth factor receptor (EGFR, Homo sapiens, UniProt P00533, G719S) | 61 |

Set 2 — cell line: mouse MPNST tumor cells; technique: high-content nuclear imaging; measured: cell number; concentration: 10 µM; time: 12 h; notes: mean of 2 replicates; baseline: plate mean; reading: higher = more cells
| Structure (SMILES) | nuclei count [z-score] |
| --- | --- |
| COc1cc(N2CCN(C)CC2)ccc1Nc1nccc(-c2cn(C)c3cnccc23)n1 | 0.476 |
| C=CC1=C(C)c2cc3nc(cc4[nH]c(cc5[nH]c(cc1n2)c(C)c5CCC(=O)O)c(CCC(=O)OC)c4C)C1(C)C3=CC=C(C(=O)OC)C1C(=O)OC (centres unmarked) | 1.02 |
| NC(=O)N[C@@H](CCC(=O)O)C(=O)O | 1.57 |
| C=CC1=C(C(=O)O)N2C(=O)[C@@H](NC(=O)/C(=N\O)c3csc(N)n3)[C@H]2SC1 | 0.868 |
| COc1cc(NC(=O)c2ccc(-c3ccc(Cl)cc3)o2)cc(OC)c1 | 3.9 |
| Nc1nc(=O)c2c([nH]1)NC[C@@H](CNc1ccc(C(=O)N[C@@H](CCC(=O)O)C(=O)O)cc1)N2C=O | -0.0273 |
| CC(=Cc1ccc(Cl)cc1)C(C)=NO | 2.13 |

Set 3 — mode: agonist
Target: Beta-1 adrenergic receptor (ADRB1, Homo sapiens, UniProt P08588)
UniProt P08588, sequence (whole entry, looked up): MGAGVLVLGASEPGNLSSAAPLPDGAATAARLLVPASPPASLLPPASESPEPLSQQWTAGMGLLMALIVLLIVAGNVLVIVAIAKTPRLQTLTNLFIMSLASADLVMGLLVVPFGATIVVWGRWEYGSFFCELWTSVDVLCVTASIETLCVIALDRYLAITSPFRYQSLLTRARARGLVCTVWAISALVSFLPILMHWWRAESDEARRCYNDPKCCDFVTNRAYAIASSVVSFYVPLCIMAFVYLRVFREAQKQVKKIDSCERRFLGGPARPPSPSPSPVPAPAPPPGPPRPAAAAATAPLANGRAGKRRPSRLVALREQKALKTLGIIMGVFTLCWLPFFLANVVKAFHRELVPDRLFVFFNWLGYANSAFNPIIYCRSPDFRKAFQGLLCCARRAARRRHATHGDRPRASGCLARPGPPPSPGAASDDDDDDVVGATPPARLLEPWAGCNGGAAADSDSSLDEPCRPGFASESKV
| Structure (SMILES) | pEC50 |
| --- | --- |
| N[S+](=O)([O-])c1ccc(CCNCC2(O)CNCCOC2)cc1 (centres unmarked) | ≤ 4.00 |
| CN(C)c1cc(=O)c2ccnc(Nc3cccnc3)c2o1 | ≤ 4.00 |
| Cc1ccccc1-n1ncc2c(NCC(C)O)ncnc21 (centres unmarked) | ≤ 4.00 |
| CN(CCC(O)c1ccccc1)C(=O)c1coc(Cn2cnc3ccccc32)n1 (centres unmarked) | ≤ 4.00 |
| OC(COc1ccc(CN2CC(O)C2)cc1)CN1CCCCC1 (centres unmarked) | ≤ 4.00 |
| CN(C)c1ccc2nc3ccc(=[N+](C)C)cc-3sc2c1 | 4.90 |

Set 4 — SMILES: Oc1ccc(Nc2nc(-c3ccc(Cl)cc3)cs2)cc1; observed: enzyme activity; mode: inhibitor; concentration: 0.5 µM; baseline: control
| target | remaining activity [%] |
| --- | --- |
| Serine/threonine-protein kinase PLK3 (PLK3, Homo sapiens, UniProt Q9H4B4) | 97.4 |
| MAP/microtubule affinity-regulating kinase 4 (MARK4, Homo sapiens, UniProt Q96L34) | 103 |
| Serine/threonine-protein kinase PAK 3 (PAK3, Homo sapiens, UniProt O75914) | 124 |
| Ribosomal protein S6 kinase alpha-4 (RPS6KA4, Homo sapiens, UniProt O75676) | 91.5 |
| G protein-coupled receptor kinase 4 (GRK4, Homo sapiens, UniProt P32298) | 90.5 |
| Serine/threonine-protein kinase tousled-like 2 (TLK2, Homo sapiens, UniProt Q86UE8) | 121 |
| Hepatocyte growth factor receptor (MET, Homo sapiens, UniProt P08581) | 99.4 |
| Mitogen-activated protein kinase 1 (MAPK1, Homo sapiens, UniProt P28482) | 106 |
| Serine/threonine-protein kinase MARK2 (MARK2, Homo sapiens, UniProt Q7KZI7) | 102 |
| Discoidin domain-containing receptor 2 (DDR2, Homo sapiens, UniProt Q16832) | 94.1 |
| Calcium/calmodulin-dependent protein kinase type IV (CAMK4, Homo sapiens, UniProt Q16566) | 99.7 |
| Misshapen-like kinase 1 (MINK1, Homo sapiens, UniProt Q8N4C8) | 103 |
| Serine/threonine-protein kinase DCLK2 (DCLK2, Homo sapiens, UniProt Q8N568) | 98.5 |
| Cyclin-dependent kinase 9, with cyclin K (CDK9, Homo sapiens, UniProt P50750) | 102 |

Excerpt of the above (set 4):
| target | remaining activity [%] |
| --- | --- |
| Discoidin domain-containing receptor 2 (DDR2, Homo sapiens, UniProt Q16832) | 94.1 |
| Mitogen-activated protein kinase 1 (MAPK1, Homo sapiens, UniProt P28482) | 106 |
